Measured values from different studies.
± marks the error that the study gave.
Organism: Enterococcus faecalis

Compound	test	system	quantity	result
CC(C)CC(c1c[nH]c2ccccc12)c1c[nH]c2ccccc12	microbial growth, absorbance		IC50	> 50 µM
CN[C@H](CC(C)C)C(=O)N[C@H]1C(=O)N[C@@H](CC(N)=O)C(=O)N[C@H]2C(=O)N[C@H]3C(=O)N[C@H](C(=O)N[C@H](C(=O)O)c4cc(O)cc(O)c4-c4cc3ccc4O)[C@H](O)c3ccc(c(Cl)c3)Oc3cc2cc(c3O[C@@H]2O[C@H](CO)[C@@H](O)[C@H](O)[C@H]2O[C@H]2C[C@](C)(NCc3ccc(-c4ccc(Cl)cc4)cc3)[C@H](O)[C@H](C)O2)Oc2ccc(cc2Cl)[C@H]1O		BM4166, VanA vancomycin-resistant	MIC	5000 ng/mL
CCCCCCCCCC[N+](C)(C)CCCCCCCCOc1cc(OCCCCCCCC[N+](C)(C)CCCCCCCCCC)cc(OCCCCCCCC[N+](C)(C)CCCCCCCCCC)c1.[Br-].[Br-].[Br-]		OG1RF	MIC	8 µM
CCCNC(=O)[C@H](Cc1ccc(O)cc1)NC(=O)[C@H]1NC(=O)[C@@H](c2ccc(O)cc2)NC(=O)[C@H](NC(=O)[C@H](CC(N)=O)NC(=O)[C@@H](Cc2ccc(O)cc2)NC(=O)[C@@H](CC(C)C)NC)c2ccc(O)c(c2)Oc2ccc1cc2	bacterial growth		IC50	> 40 µM
CC(c1c[nH]c2ccccc12)c1c[nH]c2ccccc12	microbial growth, absorbance		IC50	> 50 µM
CCCCCC[N+](C)(C)CCCCOc1cc(OCCCC[N+](C)(C)CCCCCC)cc(OCCCC[N+](C)(C)CCCCCC)c1.[Br-].[Br-].[Br-]		OG1RF	MIC	250 µM
CCCC/C=C/C(=O)N[C@@H](Cc1cc(F)cc(F)c1)C(=O)N[C@@H]1C(=O)N2CCC[C@H]2C(=O)N(C)[C@@H](C)C(=O)N[C@@H](C)C(=O)N2CCC[C@H]2C(=O)O[C@H]1C	microbial growth, broth dilution		MIC	0.76 ng/mL
COc1cccc(OC)c1C(=O)N[C@@H]1C(=O)N2[C@@H]1SC(C)(C)[C@@H]2C(=O)O	microbial growth, broth dilution	29212	MIC	64 µM
c1ccc(CC(c2c[nH]c3ccccc23)c2c[nH]c3ccccc23)cc1	microbial growth, absorbance		IC50	> 50 µM
CCCCCCCC[N+](C)(C)CCCCCCCCCCOc1cc(OCCCCCCCCCC[N+](C)(C)CCCCCCCC)cc(OCCCCCCCCCC[N+](C)(C)CCCCCCCC)c1.[Br-].[Br-].[Br-]		OG1RF	MIC	16 µM
CC(=O)C(C)(c1c[nH]c2ccccc12)c1c[nH]c2ccccc12	microbial growth, absorbance		IC50	> 50 µM
CCCC/C=C/C(=O)N[C@@H](Cc1cc(F)cc(F)c1)C(=O)N[C@@H]1C(=O)N2CCC[C@H]2C(=O)N2CC[C@H](C)C[C@H]2C(=O)N[C@@H](C)C(=O)N2CCC[C@H]2C(=O)O[C@H]1C	microbial growth, broth dilution		MIC	< 0.02 ng/mL
CCCNC(=O)[C@@H]1Cc2ccc(cc2)Oc2cc(ccc2O)[C@@H](NC(=O)[C@H](NC(=O)[C@H](CC(N)=O)NC(=O)[C@@H](Cc2ccc(O)cc2)NC(=O)[C@@H](CC(C)C)NC)c2ccccc2)C(=O)N[C@@H](Cc2ccccc2)C(=O)N1	bacterial growth		IC50	17 ± 3 µM
O=C1Nc2ccccc2C1(c1c[nH]c2ccccc12)c1c[nH]c2ccccc12	microbial growth, absorbance		IC50	> 50 µM
CCCCCCn1cc[n+](CCCCOc2cc(OCCCC[n+]3ccn(CCCCCC)c3)cc(OCCCC[n+]3ccn(CCCCCC)c3)c2)c1.[Br-].[Br-].[Br-]		OG1RF	MIC	32 µM
